Assay results of several laboratories.
Protocols differ between the studies behind these lines. ± gives the spread as reported. Bridge positions count the residues as written; N and C are the ends. Non-standard residues stand in square brackets, D forms with d. Square brackets hold non-standard residues; d marks the D form. Ends that are not written are not given here. No end group written: not given here. * marks the point of attachment. *: point of attachment.
HapB/HapC/HapE/HapX HapX 24-158: HapB/HapC/HapE/HapX HapX 24-158 (Aspergillus fumigatus)
B1: HBZ 1-77 (HTLV-1, UniProt P0C746-2); chain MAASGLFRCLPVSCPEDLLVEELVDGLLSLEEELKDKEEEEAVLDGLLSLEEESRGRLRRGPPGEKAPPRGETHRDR
B2: dksA (Escherichia coli, UniProt P0ABS1); sequence looked up; chain MQEGQNRKTSSLSILAIAGVEPYQEKPGEEYMNEAQLAHFRRILEAWRNQLRDEVDRTVTHMQDEAANFPDPVDRAAQEEEFSLELRNRDRERKLIKKIEKTLKKVEDEDFGYCESCGVEIGIRRLEARPTADLCIDCKTLAEIREKQMAG
B3: acrA (Escherichia coli, UniProt P0AE06); N-terminal lipid at C25; chain CDDKQAQQGGQQMPAVGVVTVKTEPLQITTELPGRTSAYRIAEVRPQVSGIILKRNFKEGSDIEAGVSLYQIDPATYQATYDSAKGDLAKAQAAANIAQLTVNRYQKLLGTQYISKQEYDQALADAQQANAAVTAAKAAVETARINLAYTKVTSPISGRIGKSNVTEGALVQNGQATALATVQQLDPIYVDVTQSSNDFLRLKQELANGTLKQENGKAKVSLITSDGIKFPQDGTLEFSDVTVDQTTGSITLRAIFPNPDHTLLPGMFVRARLEEGLNPNAILVPQQGVTRTPRGDATVLVVGADDKVETRPIVASQAIGDKWLVTEGLKAGDRVVISGLQKVRPGVQVKAQEVTADNNQQAASGAQPEQSKS
Sequence of UniProt P0A8V2 (whole entry, looked up): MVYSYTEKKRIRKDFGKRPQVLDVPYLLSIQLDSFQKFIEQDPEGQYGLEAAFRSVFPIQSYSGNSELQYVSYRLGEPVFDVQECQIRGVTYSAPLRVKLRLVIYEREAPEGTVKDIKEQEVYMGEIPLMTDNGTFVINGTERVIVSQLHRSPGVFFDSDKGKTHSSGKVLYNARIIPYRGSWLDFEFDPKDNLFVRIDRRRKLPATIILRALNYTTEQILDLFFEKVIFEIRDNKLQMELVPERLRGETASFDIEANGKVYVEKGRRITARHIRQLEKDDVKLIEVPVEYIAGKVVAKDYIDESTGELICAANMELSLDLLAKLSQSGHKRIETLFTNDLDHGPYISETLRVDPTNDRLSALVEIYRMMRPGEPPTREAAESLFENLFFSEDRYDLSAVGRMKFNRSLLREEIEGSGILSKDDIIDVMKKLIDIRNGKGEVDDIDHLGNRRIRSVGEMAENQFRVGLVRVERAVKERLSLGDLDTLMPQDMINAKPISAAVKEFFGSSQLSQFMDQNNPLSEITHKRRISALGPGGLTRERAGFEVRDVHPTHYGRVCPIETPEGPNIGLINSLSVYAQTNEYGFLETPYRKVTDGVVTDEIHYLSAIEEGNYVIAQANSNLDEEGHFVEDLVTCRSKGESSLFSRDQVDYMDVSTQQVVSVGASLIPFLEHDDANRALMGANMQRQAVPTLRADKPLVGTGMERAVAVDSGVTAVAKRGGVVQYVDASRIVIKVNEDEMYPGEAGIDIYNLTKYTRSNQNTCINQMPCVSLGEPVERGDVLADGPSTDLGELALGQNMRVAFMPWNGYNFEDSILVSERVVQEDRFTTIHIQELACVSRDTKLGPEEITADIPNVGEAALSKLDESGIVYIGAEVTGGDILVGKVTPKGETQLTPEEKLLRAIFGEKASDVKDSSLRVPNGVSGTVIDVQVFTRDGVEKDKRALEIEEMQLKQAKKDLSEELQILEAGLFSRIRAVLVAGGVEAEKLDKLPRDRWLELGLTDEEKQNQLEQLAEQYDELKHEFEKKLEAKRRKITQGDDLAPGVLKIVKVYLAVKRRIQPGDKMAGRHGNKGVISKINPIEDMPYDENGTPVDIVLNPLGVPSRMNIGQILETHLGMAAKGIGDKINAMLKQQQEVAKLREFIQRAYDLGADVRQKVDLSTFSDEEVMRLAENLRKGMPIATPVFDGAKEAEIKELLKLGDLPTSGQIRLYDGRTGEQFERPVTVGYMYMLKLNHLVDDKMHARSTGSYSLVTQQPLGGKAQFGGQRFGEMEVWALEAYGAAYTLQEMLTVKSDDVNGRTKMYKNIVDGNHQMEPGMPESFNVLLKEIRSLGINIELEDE
Sequence of UniProt P29590 (whole entry, unmodified, looked up): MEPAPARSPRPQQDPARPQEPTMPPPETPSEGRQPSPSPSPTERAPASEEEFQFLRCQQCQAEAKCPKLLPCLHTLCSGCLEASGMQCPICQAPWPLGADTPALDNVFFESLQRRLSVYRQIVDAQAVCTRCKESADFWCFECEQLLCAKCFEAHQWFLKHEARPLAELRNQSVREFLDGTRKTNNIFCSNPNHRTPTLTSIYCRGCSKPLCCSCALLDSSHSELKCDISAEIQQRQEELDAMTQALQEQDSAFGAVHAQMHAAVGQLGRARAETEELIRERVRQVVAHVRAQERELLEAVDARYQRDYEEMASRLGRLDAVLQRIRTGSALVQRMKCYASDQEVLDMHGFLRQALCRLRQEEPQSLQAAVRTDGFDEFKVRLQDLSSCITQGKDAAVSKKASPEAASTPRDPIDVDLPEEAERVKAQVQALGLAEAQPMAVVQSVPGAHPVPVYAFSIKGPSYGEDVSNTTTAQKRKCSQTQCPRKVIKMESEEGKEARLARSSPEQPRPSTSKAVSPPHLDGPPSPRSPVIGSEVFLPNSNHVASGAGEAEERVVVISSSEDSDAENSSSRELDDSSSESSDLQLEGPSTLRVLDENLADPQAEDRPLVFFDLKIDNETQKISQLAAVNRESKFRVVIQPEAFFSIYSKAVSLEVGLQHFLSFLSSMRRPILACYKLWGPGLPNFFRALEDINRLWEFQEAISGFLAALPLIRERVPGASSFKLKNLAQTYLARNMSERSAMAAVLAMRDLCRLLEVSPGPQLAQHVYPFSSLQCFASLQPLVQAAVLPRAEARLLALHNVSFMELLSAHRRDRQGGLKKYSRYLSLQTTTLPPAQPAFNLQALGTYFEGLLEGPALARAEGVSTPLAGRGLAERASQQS
Sequence of UniProt O75762 (whole entry, looked up): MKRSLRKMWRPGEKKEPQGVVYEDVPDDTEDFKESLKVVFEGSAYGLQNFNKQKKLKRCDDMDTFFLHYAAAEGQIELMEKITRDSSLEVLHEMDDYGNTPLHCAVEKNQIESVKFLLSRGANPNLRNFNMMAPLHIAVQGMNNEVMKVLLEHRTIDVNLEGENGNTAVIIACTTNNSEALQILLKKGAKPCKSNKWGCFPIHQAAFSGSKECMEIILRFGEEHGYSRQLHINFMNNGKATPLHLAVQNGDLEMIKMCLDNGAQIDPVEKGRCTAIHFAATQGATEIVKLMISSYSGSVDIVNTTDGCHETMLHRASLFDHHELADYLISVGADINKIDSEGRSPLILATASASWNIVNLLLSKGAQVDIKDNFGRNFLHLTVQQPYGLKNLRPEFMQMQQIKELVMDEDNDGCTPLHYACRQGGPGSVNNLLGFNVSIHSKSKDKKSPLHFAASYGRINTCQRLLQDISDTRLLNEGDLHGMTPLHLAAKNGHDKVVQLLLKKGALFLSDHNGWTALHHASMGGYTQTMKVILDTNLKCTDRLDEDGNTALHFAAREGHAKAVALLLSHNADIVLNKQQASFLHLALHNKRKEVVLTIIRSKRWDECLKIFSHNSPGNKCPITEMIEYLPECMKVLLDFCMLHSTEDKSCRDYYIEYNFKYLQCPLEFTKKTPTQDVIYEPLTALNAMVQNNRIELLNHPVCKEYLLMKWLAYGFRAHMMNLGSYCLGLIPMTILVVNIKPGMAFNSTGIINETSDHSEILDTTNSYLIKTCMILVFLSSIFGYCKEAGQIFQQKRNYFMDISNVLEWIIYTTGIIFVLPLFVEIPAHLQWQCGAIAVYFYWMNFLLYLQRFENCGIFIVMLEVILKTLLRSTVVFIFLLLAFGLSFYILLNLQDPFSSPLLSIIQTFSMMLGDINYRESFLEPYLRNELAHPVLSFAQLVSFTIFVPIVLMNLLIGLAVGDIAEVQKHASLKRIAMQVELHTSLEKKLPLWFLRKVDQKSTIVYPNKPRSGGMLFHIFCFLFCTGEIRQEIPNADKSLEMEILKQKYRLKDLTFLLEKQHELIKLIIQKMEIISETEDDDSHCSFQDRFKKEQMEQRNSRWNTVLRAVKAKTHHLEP
Sequence of UniProt P29375 (1-797, looked up): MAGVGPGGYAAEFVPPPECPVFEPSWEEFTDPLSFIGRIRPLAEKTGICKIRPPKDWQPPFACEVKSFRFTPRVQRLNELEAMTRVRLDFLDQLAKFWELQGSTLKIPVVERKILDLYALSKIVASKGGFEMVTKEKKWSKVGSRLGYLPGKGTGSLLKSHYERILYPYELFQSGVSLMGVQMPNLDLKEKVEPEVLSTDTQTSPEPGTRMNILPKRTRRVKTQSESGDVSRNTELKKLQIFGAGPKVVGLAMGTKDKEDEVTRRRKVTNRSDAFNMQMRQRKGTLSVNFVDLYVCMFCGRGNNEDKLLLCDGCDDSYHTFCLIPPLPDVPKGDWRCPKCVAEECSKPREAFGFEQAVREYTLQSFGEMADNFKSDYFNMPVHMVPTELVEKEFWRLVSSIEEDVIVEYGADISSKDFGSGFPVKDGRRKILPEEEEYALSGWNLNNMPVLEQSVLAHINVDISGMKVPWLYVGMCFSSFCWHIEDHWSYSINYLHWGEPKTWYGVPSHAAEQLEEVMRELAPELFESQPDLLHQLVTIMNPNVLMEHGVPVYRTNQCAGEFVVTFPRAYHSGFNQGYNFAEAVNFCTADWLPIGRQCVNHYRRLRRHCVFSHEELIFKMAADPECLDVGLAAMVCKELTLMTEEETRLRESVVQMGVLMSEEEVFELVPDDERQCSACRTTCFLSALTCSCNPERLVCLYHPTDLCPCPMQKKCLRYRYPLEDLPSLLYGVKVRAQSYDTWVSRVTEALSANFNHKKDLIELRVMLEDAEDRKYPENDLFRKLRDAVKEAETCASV
Sequence of UniProt P00750 (whole entry, looked up): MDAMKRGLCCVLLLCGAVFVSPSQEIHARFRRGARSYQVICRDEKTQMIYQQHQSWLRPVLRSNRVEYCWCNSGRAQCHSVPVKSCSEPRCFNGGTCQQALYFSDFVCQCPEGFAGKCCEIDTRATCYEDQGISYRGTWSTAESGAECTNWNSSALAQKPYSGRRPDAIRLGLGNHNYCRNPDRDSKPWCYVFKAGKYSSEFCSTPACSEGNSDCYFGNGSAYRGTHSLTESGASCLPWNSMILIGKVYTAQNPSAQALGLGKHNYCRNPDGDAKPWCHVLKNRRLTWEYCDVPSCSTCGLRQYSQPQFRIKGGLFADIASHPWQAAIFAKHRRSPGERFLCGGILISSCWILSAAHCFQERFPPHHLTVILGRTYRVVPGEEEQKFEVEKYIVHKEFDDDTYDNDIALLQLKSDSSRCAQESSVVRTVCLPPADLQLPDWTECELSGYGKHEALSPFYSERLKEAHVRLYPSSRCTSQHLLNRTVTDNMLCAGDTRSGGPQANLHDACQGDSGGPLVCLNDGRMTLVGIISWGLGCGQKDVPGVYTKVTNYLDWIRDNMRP

Molecule	tested on	assay	system	setting	scale	quantity	value
Ac-NRLLLTG (NRLLLTG; N-acetyl)	HSPA8 395-509 (Homo sapiens, UniProt P11142)	competition with tracer, fluorescence polarisation	peptide	added: FAM-Cdk4-2 tracer	–	Ki	0.56 ± 0.05 µM
histone H3 fragment, K36me3 (sequence not shown)	MORF4L1 fragment (Homo sapiens)	NMR titration	–	pH 7.5, 25 °C	–	Kd	580 ± 180 µM
B1 (HBZ 1-77)	Crebbp 588-683 (Mus musculus, UniProt P45481)	pull-down	–	added: pCREB 100 nM	baseline: without pCREB, higher = more binding	relative binding	2 fold
Biotin-GSGSASPQQAKYCYEQCNVNKVPFDQCYQMCSPLERS (WaTx; disulfide 13-31, 17-27; not fully specified; Biotin = O=C1N[C@H]2[C@H](CS[C@H]2CCCCC(=O)*)N1)	TRPA1 (Homo sapiens, UniProt O75762)	single channel current, inside-out patch	peptide, HEK	1 µM, after washout, Vh -40 mV, added: iodoacetamide 100 µM	–	mean open dwell time	2.8 ± 0.6 ms
protein (Streptomyces exfoliatus, UniProt O87916)	PBP2a residues 41-end (Staphylococcus aureus)	SPR	–	–	–	koff	0.000262 s⁻¹
B2 (dksA)	rpoB β subunit 1-1342 (Escherichia coli, UniProt P0A8V2)	crystal structure	–	without ppGpp	–	binding	binds
TCTACAGCCAATCAGTATCATTATAAAGAAGCTGACGGGAGG (dsDNA)	HapB/HapC/HapE/HapX HapX 24-158	SPR	double-stranded DNA, one strand shown	HapX on preformed CBC:DNA	–	Kd	< 0.1 µM
gag peptide M6F/I8Y (SHIV)	Mane-A1*082:01 (Macaca nemestrina)	competition with radiolabeled ligand, competitor, radioligand binding	–	added: radiolabeled peptide	–	IC50	0.0082 µM
Biotin-ATAPRIDDEIPPPLPVRTPESFIVVEEAGEFSPNVPKSLS (N-biotin; Biotin = O=C1N[C@H]2[C@H](CS[C@H]2CCCCC(=O)*)N1)	PTPN22 (Homo sapiens, UniProt Q9Y2R2)	enzyme activity	peptide	50 nM, pH 6.0, added: DiFMUP	–	kcat	8.2 ± 0.3 s⁻¹
ARTKQTARKSTGGKAPRK (histone H3 residues 1-18)	KDM4A 890-1031 (Homo sapiens, UniProt O75164-1)	displacement of biotinylated peptide, competitor, AlphaScreen	peptide	–	–	EC50	89 µM
{FITC}-GFID[pS]D[pT]DVEEE-NH2 (peptide; N-terminal FITC, pS5, pT7, C-terminal amide; FITC = O=C1OC2(c3ccc(O)cc3Oc3cc(O)ccc32)c2ccc(NC(=S)*)cc21; pS = N[C@@H](COP(=O)(O)O)C(=O)O; pT = C[C@@H](OP(=O)(O)O)[C@H](N)C(=O)O)	TOPBP1 641-746 R681E/K682E (Homo sapiens, UniProt Q92547)	fluorescence polarisation	peptide	pH 7.5, NaCl 150 mM	–	Kd	170 ± 10 µM
RmS-3, glycosylated (Rhipicephalus microplus)	F9 factor IXa (Bos taurus)	chromogenic substrate hydrolysis, inhibitor	–	1 µM	–	protease inhibition	< 20%
ART[Lys(Me3)]QTARKSTGGAAPAA (Lys(Me3) = C[N+](C)(C)CCCC[C@H](N)C(=O)O; sequence looked up)	Lysine-specific demethylase 5A, residues 1-797 (KDM5A, Homo sapiens, UniProt P29375)	demethylation, substrate	peptide	mean of two experiments	–	kcat	0.108 ± 0.007 s⁻¹
SGAGEAEERVVVIDDDEDDDAENSSSRY (PML 547-573 S560D/S561D/S562D/S565D (Homo sapiens, UniProt P29590))	SUMO2 2-93 C48A (Homo sapiens, UniProt P61956)	ITC	peptide	pH 7.4, 25 °C	–	Kd	5.3 ± 1 µM
QATFMVFQALAQYQKDAP (C3 1270-1287 (Homo sapiens); N- and C-terminal capped)	HLA-DRA/HLA-DRB1*04:01 (Homo sapiens)	competition with ligand, ELISA	peptide	–	–	IC50	9.64 µM
RmS-6, glycosylated (Rhipicephalus microplus)	PLAT (Homo sapiens, UniProt P00750)	chromogenic substrate hydrolysis, inhibitor	–	1 µM	–	protease inhibition	< 20%
melittin	–	CD titration	POPC 75% POPG 25% vesicles	pH 7.0, 50 °C	–	free energy of partitioning	-7.28 kcal/mol
B3 (acrA)	acrB C493S/C887S/S1043C (Escherichia coli, UniProt P31224)	SPR	–	pH 6.0, 150 mM NaCl, global fit, Langmuir or two-state	–	Kd	0.09 µM
CTGTCTGCCAAAGAGCGTGTCCCTGTTAATAATGTTATGG (dsDNA)	HapB/HapC/HapE/HapX HapX 24-158	SPR	double-stranded DNA, one strand shown	HapX on preformed CBC:DNA	–	Kd	< 0.1 µM
DLG1 PDZ2 domain (Homo sapiens)	E6 residues 80-151 (Human papillomavirus type 16)	ITC	–	pH 6.50, 20 °C, single-site model	–	Kd	6.6 ± 1 µM
RmS-17, glycosylated (Rhipicephalus microplus)	F12 factor XIIa (Homo sapiens)	chromogenic substrate hydrolysis, inhibitor	–	1 µM	–	protease inhibition	< 20%
Z13e1 Fab (human)	env peptide residues 668-683 (HIV-1)	ITC	–	298 K, single-site model	–	ΔH	-12.7 kcal/mol
